Measurements pooled from the literature.
Target: Serine/threonine-protein kinase TAO2 (TAOK2, Homo sapiens, UniProt Q9UL54)
Residues used in one study (Q9UL54 1-1235): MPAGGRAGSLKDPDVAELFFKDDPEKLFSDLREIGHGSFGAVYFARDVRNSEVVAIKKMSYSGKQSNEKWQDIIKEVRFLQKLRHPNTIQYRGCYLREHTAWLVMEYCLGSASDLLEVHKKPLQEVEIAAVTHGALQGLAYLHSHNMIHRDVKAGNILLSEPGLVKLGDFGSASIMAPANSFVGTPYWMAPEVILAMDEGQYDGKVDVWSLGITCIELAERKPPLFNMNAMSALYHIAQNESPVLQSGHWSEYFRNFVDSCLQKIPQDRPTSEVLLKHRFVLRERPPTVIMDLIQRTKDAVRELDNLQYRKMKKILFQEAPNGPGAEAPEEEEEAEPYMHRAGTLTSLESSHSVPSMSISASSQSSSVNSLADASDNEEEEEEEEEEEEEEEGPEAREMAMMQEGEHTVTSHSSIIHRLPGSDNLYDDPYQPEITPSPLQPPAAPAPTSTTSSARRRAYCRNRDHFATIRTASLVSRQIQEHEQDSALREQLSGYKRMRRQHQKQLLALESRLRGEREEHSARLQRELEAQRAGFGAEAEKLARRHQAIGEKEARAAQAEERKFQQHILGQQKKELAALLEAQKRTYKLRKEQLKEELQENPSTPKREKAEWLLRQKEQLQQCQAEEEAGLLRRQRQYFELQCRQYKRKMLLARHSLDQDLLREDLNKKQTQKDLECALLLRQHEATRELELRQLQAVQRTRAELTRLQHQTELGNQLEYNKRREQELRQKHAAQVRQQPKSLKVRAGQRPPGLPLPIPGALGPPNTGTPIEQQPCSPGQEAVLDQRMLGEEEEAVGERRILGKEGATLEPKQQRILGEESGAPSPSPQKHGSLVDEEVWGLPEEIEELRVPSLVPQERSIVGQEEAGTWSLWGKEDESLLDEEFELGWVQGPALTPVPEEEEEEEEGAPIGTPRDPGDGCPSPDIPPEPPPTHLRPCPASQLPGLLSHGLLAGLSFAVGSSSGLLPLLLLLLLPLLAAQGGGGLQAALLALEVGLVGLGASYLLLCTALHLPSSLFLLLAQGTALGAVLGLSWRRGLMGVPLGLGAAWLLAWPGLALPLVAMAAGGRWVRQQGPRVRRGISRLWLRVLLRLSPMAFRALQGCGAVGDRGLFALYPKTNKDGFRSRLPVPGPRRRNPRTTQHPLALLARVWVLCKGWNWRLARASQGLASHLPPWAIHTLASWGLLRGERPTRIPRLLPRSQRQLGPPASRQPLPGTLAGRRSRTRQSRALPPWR

`COc1cc(N2CCN(C)CC2)ccc1Nc1nc(N)n(C(=O)NCc2c(Cl)cccc2Cl)n1` has a remaining activity of 26% (enzyme activity; 10 µM; reference: control).
`CN(C)CC#Cc1ccc2[nH]c3c(c2c1)-c1nc(N)ncc1CCC3` has a remaining activity of 79% (kinase activity, inhibitor, radiometric; 1 µM, with: ATP at Km).
With `Cc1cc(Nc2cc(N3CCN(C)CC3)nc(Sc3ccc(NC(=O)C4CC4)cc3)n2)[nH]n1` the remaining activity was 103% (kinase activity, KinaseProfiler; 0.03 µM, species human; reference: control).
The inhibition of `CN(C)C1CCN(CC#Cc2nn(C3CCCC3)c3nc(NCc4ccccc4)ncc23)C1` (stereo not shown) is reported as 2% (enzyme activity, inhibitor, Z'-LYTE; 1000 nM).
The remaining activity of `CC(C)(O)[C@H]1CC[C@H](Nc2ccc3ncc(-c4cccc(C(F)(F)F)c4)n3n2)CC1` is reported as 89.8% (enzyme activity, inhibitor; 1 µM, with: 10 µM ATP; reference: DMSO).
For `CC[C@@H]1[C@H](F)C(=O)N[C@@H]1COc1nccc2cc(C(N)=O)c(OC)cc12`, the inhibition was -6.6% (ATP probe binding, KiNativ profiling, item: Lys2 probe site; THP-1 cell lysate; 0.2 mM).
`COc1cc(F)ccc1-c1ncnc(Nc2cccc(C[S@](C)(=N)=O)c2)n1` has a remaining activity of 47% (kinase activity; 10 µM, with: 10 µM ATP).
`CCOc1cc(-c2nncn2C)ccc1Nc1ncc2cc(C)nc(NCC(C)(C)C)c2n1` gave an inhibition of < 15% (kinase activity, Z'-LYTE; 1 µM).
The inhibition of `COc1cc2ncnc(Nc3ccc(Oc4ccccc4)c(C)c3C)c2cc1OC` is reported as -4% (kinase activity, inhibitor; 1 µM).
For `C=CC(=O)N1CCC(COCC(=O)N2CCN(c3nc(-c4cnc(N)nc4C(F)F)nc(N4CCOC[C@@H]4C)n3)CC2)CC1`, the remaining binding was 90% (KINOMEscan; 1 µM).
